Measured values of several laboratories.
A part holds a random share of what one study measured.
UniProt O75676, sequence (whole entry, looked up): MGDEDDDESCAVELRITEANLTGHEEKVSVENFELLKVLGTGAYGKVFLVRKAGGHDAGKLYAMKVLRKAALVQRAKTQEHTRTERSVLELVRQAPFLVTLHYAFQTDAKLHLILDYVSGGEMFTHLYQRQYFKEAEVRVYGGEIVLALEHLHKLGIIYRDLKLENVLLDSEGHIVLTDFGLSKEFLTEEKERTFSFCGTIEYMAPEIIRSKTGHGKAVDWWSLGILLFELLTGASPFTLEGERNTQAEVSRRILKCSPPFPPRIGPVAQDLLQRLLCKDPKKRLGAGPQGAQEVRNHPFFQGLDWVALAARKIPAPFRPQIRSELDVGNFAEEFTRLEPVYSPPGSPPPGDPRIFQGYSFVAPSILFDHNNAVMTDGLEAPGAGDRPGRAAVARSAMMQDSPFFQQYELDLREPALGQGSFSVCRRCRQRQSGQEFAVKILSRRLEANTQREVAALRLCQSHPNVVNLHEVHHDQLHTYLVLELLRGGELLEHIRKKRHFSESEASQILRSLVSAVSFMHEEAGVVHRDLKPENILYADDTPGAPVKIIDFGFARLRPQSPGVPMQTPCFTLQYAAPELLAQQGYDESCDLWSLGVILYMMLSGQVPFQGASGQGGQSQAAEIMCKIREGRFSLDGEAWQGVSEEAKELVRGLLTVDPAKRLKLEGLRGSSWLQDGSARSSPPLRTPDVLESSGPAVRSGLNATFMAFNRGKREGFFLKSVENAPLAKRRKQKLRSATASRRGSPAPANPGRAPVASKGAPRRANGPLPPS
UniProt Q15759, sequence (whole entry, looked up): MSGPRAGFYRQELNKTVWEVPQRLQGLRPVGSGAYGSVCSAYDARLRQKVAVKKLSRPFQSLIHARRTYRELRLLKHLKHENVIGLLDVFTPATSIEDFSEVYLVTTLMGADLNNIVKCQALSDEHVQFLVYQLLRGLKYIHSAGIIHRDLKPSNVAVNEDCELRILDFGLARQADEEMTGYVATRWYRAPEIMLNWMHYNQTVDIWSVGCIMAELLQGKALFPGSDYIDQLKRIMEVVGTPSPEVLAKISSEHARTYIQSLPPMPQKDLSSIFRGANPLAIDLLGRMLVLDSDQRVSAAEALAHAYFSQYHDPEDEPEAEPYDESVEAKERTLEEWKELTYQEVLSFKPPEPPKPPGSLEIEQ
UniProt O75914, sequence (whole entry, looked up): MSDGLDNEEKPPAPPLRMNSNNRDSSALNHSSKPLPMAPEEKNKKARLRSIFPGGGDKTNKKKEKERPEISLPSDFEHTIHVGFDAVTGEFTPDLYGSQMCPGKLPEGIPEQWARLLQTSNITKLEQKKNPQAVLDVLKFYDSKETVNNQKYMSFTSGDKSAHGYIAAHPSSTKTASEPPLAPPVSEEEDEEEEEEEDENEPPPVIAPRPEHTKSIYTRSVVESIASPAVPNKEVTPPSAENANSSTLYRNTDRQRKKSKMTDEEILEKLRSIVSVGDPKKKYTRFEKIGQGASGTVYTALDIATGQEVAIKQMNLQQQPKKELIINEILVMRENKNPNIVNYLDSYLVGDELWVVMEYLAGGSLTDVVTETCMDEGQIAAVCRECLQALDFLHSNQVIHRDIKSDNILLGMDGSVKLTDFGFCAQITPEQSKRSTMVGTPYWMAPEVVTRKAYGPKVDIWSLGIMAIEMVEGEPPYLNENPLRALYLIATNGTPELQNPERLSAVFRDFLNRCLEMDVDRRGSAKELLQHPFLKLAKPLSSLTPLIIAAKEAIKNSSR
UniProt P49761, sequence (whole entry, looked up): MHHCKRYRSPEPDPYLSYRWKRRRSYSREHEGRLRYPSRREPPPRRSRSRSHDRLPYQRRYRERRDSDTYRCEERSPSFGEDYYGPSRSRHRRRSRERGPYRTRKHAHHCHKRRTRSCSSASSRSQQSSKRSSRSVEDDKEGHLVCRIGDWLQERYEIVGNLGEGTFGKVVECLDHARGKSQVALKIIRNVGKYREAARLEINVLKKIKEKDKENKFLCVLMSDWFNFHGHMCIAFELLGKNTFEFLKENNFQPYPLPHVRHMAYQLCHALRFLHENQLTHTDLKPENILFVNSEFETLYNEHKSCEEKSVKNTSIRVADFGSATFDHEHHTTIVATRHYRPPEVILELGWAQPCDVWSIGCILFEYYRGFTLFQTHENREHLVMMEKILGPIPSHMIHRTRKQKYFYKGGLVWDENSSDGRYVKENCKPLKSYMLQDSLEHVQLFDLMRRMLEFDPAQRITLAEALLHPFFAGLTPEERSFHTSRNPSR
UniProt Q02750, sequence (whole entry, looked up): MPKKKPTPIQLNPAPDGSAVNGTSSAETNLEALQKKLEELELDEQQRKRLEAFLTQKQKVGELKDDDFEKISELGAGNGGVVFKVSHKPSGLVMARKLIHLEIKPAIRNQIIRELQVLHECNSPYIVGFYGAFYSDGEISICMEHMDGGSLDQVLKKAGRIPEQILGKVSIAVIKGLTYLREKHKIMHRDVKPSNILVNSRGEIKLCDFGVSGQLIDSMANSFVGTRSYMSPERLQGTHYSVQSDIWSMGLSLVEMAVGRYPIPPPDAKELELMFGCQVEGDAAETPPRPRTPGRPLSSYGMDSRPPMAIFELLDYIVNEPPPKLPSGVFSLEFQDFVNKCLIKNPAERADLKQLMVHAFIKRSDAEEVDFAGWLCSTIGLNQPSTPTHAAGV
UniProt P22607, sequence (whole entry, unmodified, looked up): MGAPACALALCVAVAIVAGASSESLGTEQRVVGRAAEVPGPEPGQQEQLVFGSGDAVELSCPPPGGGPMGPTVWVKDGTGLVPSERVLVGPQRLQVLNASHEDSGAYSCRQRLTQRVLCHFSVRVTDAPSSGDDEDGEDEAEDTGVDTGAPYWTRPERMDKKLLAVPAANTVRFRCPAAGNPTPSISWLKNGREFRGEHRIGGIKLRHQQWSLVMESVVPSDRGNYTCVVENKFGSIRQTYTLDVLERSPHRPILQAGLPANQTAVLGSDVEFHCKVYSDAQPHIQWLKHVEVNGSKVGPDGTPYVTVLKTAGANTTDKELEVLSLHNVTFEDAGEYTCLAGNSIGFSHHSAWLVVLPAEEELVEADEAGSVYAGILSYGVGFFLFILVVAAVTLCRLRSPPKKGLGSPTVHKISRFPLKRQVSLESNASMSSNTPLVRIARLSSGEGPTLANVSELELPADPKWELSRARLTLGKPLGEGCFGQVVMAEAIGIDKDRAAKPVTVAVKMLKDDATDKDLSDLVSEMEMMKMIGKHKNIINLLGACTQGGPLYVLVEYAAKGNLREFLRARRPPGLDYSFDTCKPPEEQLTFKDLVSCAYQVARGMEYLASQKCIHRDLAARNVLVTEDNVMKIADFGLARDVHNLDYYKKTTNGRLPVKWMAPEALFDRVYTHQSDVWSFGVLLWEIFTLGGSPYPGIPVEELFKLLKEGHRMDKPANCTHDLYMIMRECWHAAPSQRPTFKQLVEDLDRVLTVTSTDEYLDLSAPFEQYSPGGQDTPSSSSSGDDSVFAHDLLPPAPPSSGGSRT
UniProt Q16539, sequence (whole entry, looked up): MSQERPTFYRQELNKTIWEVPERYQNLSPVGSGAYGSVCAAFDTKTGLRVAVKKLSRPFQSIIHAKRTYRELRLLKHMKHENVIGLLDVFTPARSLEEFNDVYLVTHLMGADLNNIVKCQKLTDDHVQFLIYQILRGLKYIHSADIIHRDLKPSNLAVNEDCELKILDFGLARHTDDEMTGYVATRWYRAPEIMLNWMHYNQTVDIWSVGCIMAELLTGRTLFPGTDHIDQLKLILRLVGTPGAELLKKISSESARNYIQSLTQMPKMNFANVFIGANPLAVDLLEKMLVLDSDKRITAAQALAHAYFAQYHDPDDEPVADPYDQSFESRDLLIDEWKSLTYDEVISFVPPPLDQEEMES
UniProt Q8IW41, sequence (whole entry, looked up): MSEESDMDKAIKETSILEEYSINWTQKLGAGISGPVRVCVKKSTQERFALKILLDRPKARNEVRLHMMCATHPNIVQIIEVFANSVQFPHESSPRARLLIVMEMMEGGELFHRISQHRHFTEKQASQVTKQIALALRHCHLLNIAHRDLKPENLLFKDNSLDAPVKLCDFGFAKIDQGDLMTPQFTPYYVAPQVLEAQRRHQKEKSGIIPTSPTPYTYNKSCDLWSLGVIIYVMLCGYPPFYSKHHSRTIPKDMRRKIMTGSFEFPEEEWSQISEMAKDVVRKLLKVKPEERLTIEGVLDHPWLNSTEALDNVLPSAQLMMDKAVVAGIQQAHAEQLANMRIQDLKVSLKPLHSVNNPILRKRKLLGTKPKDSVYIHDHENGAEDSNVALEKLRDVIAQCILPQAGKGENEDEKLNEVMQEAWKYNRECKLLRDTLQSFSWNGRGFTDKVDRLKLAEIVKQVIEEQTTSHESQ
UniProt P46734, sequence (whole entry, looked up): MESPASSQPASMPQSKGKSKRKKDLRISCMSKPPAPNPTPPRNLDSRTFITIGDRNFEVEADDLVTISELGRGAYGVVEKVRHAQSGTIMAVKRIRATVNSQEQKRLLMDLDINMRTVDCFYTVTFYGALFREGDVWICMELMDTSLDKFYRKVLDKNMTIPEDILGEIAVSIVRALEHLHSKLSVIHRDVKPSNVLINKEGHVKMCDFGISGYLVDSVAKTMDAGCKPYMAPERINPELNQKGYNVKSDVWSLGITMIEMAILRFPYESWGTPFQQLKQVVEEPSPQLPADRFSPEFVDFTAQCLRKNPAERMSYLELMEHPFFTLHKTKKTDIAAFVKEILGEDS
UniProt P53778, sequence (whole entry, looked up): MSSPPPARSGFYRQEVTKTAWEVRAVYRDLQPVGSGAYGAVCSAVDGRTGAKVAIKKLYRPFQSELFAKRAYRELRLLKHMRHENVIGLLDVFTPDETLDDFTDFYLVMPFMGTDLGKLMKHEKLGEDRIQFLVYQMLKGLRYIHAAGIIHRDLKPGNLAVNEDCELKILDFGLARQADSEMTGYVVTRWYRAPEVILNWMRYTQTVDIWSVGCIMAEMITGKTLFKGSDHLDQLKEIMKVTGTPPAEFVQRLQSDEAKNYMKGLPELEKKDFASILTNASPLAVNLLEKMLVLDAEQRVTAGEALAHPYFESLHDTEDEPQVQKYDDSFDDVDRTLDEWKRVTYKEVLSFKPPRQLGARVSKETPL

Sample 1
SMILES: CCOC(=O)c1cc2cc(-c3cc(C(=O)NCc4ccc(C(=O)O)cc4)nn3C)ccc2[nH]1
Observed: cell-free assay
Technique: competition with immobilised ligand
Tested at: 0.1 µM
| target | remaining binding |
| --- | --- |
| FGFR3 (Homo sapiens, UniProt P22607, G697C) | 92% |
| MAP3K3 (Homo sapiens, UniProt Q99759) | 94% |
| Ribosomal protein S6 kinase alpha-4, C-terminal kinase domain (RPS6KA4, Homo sapiens, UniProt O75676) | 86% |
| DDR1 (Homo sapiens, UniProt Q08345) | 100% |

Sample 2
Species: mouse
Sample: microsomes or S9
Tested at: 2 µM
Time: 0.5 h
| SMILES | remaining compound |
| --- | --- |
| Cc1c(C)c(C)c(CNC(=O)C2CNC(=O)C2)c(C)c1C (centres unmarked) | 45.6% |
| Clc1ccc(C2=NN(c3ccccc3)C(c3ccccc3Cl)C2)cc1 (centres unmarked) | 90.9% |
| Fc1ccc2nc(-c3ccc4c(c3)OCO4)c3nn[nH]c3c2c1 | 4.45% |
| O=C(N[C@H](c1ccccc1)[C@@H](O)c1ccccc1)c1ccc(F)cc1 | 76.6% |
| CCN(CC)S(=O)(=O)c1ccc(OC)c(NC(=O)CCCOc2ccc(Cl)c(C)c2)c1 | 2.34% |
| Cn1ccc(-c2ccc(-c3cc(Br)cnc3N)nc2)n1 | 18.1% |

Sample 3
SMILES: Cc1nc(Nc2ncc(C(=O)Nc3c(C)cccc3Cl)s2)cc(N2CCN(CCO)CC2)n1
Observed: enzyme activity
Mode: inhibitor
Tested at: 0.5 µM
Reference: control
| target | remaining activity [%] |
| --- | --- |
| MAPK11 (Homo sapiens, UniProt Q15759) | 76.6 |
| TXK (Homo sapiens, UniProt P42681) | 1.37 |
| CAMK4 (Homo sapiens, UniProt Q16566) | 91.3 |
| RPS6KA4 (Homo sapiens, UniProt O75676) | 107 |
| PRKG2 (Homo sapiens, UniProt Q13237) | 104 |
| MARK4 (Homo sapiens, UniProt Q96L34) | 90.9 |
| CDC42BPB (Homo sapiens, UniProt Q9Y5S2) | 98.8 |
| MAP2K1 (Homo sapiens, UniProt Q02750) | 120 |
| DCLK2 (Homo sapiens, UniProt Q8N568) | 99.8 |
| MAPK14 (Homo sapiens, UniProt Q16539) | 36.5 |
| PAK3 (Homo sapiens, UniProt O75914) | 105 |
| Cyclin-dependent kinase 1, with cyclin A (CDK1, Homo sapiens, UniProt P06493) | 96.3 |
| GRK4 (Homo sapiens, UniProt P32298) | 94.1 |
| CLK3 (Homo sapiens, UniProt P49761) | 95.2 |

Sample 4
Cell line: HaCaT
Tested at: 100 µM
Time: 18 h
| SMILES | viability [%] |
| --- | --- |
| CCOc1nc2cccc(C(=O)OC(C)OC(=O)OC3CCCCC3)c2n1Cc1ccc(-c2ccccc2-c2nnn[nH]2)cc1 (centres unmarked) | 19.7 |
| Cn1c(=O)c2c(ncn2CCO)n(C)c1=O | 107 |
| c1ccc2[nH]c(-c3cscn3)nc2c1 | 74.5 |
| C[N+]1(C)CCCC(OC(=O)C(O)(c2ccccc2)c2ccccc2)C1 (centres unmarked) | 112 |
| CCCCCNC(=N)N/N=C/c1c[nH]c2ccc(OC)cc12 | 18.3 |

Sample 5
Compound: C=CC(=O)N1CCC[C@@H](n2nc(-c3ccc(Oc4ccccc4)cc3)c3c(N)ncnc32)C1
Observed: enzyme activity
Mode: inhibitor
Tested at: 1 µM
| target | inhibition |
| --- | --- |
| MAPK12 (Homo sapiens, UniProt P53778) | 23% |
| MAP2K3 (Homo sapiens, UniProt P46734) | 20% |
| MAPKAPK5 (Homo sapiens, UniProt Q8IW41) | 16% |

Some of these lines once more (sample 1):
| target | remaining binding |
| --- | --- |
| Ribosomal protein S6 kinase alpha-4, C-terminal kinase domain (RPS6KA4, Homo sapiens, UniProt O75676) | 86% |
| DDR1 (Homo sapiens, UniProt Q08345) | 100% |
